Experimental data of several laboratories.
Every numbered part comes from another study and shows a few of its results, in no order. Substitutions count along the parent as printed.

Sample 1 — method: protein-binding microarray; molecule type: double-stranded DNA, one strand shown; medium: in vitro; tested at: not given; reading: higher = stronger binding
Target: Protein C-ets-1 (ETS1, Homo sapiens, UniProt P14921, residues 1-441, full length assumed)
Chain of UniProt P14921 (whole entry, looked up): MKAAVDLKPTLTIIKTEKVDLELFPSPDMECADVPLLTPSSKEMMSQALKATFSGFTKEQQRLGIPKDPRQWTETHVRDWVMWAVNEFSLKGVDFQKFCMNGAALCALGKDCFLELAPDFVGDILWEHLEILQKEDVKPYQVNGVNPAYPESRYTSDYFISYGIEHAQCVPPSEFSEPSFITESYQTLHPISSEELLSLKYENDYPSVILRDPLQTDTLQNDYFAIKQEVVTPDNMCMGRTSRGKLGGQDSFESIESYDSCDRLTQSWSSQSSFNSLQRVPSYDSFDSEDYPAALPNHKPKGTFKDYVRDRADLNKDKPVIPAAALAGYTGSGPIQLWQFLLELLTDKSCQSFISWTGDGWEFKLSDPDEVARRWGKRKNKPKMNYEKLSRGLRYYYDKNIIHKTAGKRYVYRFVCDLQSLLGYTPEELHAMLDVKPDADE
Notes: k-mer, scored over probes, only values ≥0.25
Strand | E-score
CGGATCCA | 0.304
GAACAGGA | 0.333
CCGGAATC | 0.419
ACATCCAA | 0.25
GACATCCC | 0.276
AAGGATAT | 0.259
AAGGATGT | 0.402
CATTCCGG | 0.37
ACATCCAG | 0.265
ACTGCGGA | 0.295
GGAAACAA | 0.363
TCCGTCAA | 0.307
ACGGGACA | 0.267
ACACGGAA | 0.269
ATCCGTGG | 0.28
ACCGCGGA | 0.255
AGACAGGA | 0.423
CGCCGGAA | 0.477
GCAGGAAA | 0.443
AGGAACCG | 0.283
CCAGATCC | 0.268

Sample 2 — method: DHFR PCA, deep sequencing; medium: yeast; added: (+)-ABA 58 µM; reference: wild-type fitted maximum; reading: higher = stronger binding
Target: ABI1, truncated, D143A, DHFR fusion (Arabidopsis thaliana)
Notes: methotrexate growth selection, single substitutions
Starting sequence: PYL1, truncated, DHFR fusion (Arabidopsis thaliana); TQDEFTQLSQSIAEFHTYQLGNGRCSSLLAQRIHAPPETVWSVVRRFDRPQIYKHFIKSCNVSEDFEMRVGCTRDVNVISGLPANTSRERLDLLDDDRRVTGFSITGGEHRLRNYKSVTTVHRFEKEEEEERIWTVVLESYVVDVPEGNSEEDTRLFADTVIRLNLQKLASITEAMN
Variant | relative binding score [%]
N165G | 11.3
V43Q | 38.4
I33W | 4.38
T101I | 92.2
V121N | -1.02
V40D | -9.61
T86V | 65.7
G21R | 90.6
G107M | 25.7
V40H | 6.57
R132G | 103
Y18M | 68.2
F56G | 0.488
D153R | -2.65
I57A | 31.1
K168W | 80.9
V136T | 70

Sample 3 — method: RNA Bind-n-Seq; molecule type: RNA; medium: in vitro; tested at: 365 nM; reference: no-protein control; reading: higher = stronger binding
Target: RNA binding protein fox-1 homolog 2, RRM domain, GST-SBP tag (RBFOX2, Homo sapiens, UniProt O43251-10, residues 100-194)
Notes: natural RNA segment, single round, ends assumed
All sequences stand within: GGGAGUUCUACAGUCCGACGAUC … UGGAAUUCUCGGGUGCCAA
Residues (chain): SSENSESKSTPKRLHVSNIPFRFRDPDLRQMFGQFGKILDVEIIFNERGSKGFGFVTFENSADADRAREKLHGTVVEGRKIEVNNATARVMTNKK
Strand | RBNS enrichment (R)
UGAAUCCAACAUCUAUUUGGAAUGAAUGUAAGACCACAGGUAGCAGGCAUACUCCUGCUUAGGAUAACCAUUUGCUGGUCUUCAUUCAAUUCUUUCUCUCUUUUUAUUAC | 0.564
GCUCCUGGGUGGCUUUGUGUGAGGGGACUGAACGCAGACAAACCACAGCCUGCUUCUAAUACCUUCUUUCCCUACCACCUAGUUCCAAAUGGAACCAACAAGUUGAGUGC | 0.279
UGGCACUAGUUCAGUUUAUAUCCCUCUCAUAAUAUGGCAGUUCAUUAAAAUACAAAGCAGUAAAAUGUCAUUUGCUGUACGAUUAUUAACUAUAAAUCUGGCUAUUUCUU | 0.411
AUAGGCUCUGUGGAGUUGGCUUGCAUUUGGAUUUCUCUCUUCUAAGGUACAUGUUAAACCUUCCUCUGCCUUCUCAGCCACAUGCUUUUGGCCAUAAAUACUCAAUCUAC | 0.921
GCCUUGCUUUGCAAGGAUGGUAAAGAGAAAGCAGACCAGCCAGAUGCAGUCAGUGGUGUAUGCUUGUAAUCCCAGCCCUGGGGAGGCAGAGAAAAAUACCUAAGGCUCAG | 0.516
UGGCCACCCCUGCAGGGGAGCUACAGUGAGGCCUGGGGCUGGAUUCCACCCACAGUCCCUUCCCUGUGCACCCUGCUUUGUCCCCUGCCUUGUCCCCUGCUCUCUCUUCU | 0.581
GCUCUACUUUGAUAUUAUAACCUAUGUCACAUGUGUUUAAUAAAUACCAUAUAUUUUGUUCUACUAAUGUUGUCUCUCUGUUUCAUCCAUGACCAUGUAGAAGGGGCAGA | 0.662
AGAUGUUUGUAAUCGUUUUCAGUCUCCUGCAGGUUUCUGUGCCCCUGUGGUGGAAGAGGGCACGACAGUGCCAGCGCAGCGUUCUGGGCUCCUCAGUCGCAGGGGUGGGA | 1.14

Sample 4 — method: RNAcompete; molecule type: RNA; medium: in vitro; tested at: 20 nM; notes: 7-mer, probes averaged, single round; reference: mean of 7-mers; reading: higher = stronger binding
Target: PABPC1L2, full length, GST fusion (mouse, UniProt A0ABA7IW68)
Construct (chain): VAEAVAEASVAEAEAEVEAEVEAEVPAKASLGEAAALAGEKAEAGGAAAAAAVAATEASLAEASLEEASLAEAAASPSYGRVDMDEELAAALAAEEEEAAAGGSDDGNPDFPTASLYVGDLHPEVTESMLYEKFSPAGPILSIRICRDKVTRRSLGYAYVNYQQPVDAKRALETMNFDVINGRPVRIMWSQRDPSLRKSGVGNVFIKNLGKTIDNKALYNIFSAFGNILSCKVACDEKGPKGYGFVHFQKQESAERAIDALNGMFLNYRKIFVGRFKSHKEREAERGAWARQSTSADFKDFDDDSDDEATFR
Strand | 7-mer Z-score
ACCAAUG | -0.0246
GUCACGA | 0.0315
GAUAAUA | 0.155
GACUGCA | -0.0283
UCUUAUC | -0.344
UUGAGAA | 0.218
AAACGAA | 1.36
CAUCCUC | -0.329
CUUGUGA | -0.378
AUCCGCA | -0.249
AGAAGUC | -0.333
UCCGAUC | -0.376
CCGUGGC | 0.00617
GUUACCA | -0.0373
UGUUCUA | -0.309
CCAGCAA | 0.0406
UCUAUUA | -0.291
CAGCGAU | 0.0442
CAUCGAG | -0.0754
GUGAGUU | -0.345
CUUUUCC | -0.387
AACGUUC | -0.313
ACAUUCC | -0.24

Sample 5 — method: DNA-protein interaction ELISA; molecule type: double-stranded DNA, one strand shown; medium: in vitro, bacterial lysate; tested at: not given; notes: whole dsDNA probe, crude lysate protein; reference: highest signal in screen; reading: higher = stronger binding
Target: Probable WRKY transcription factor 33, N-terminal DNA-binding domain (WRKY33, Arabidopsis thaliana, UniProt Q8S8P5, residues 169-264)
Construct (chain): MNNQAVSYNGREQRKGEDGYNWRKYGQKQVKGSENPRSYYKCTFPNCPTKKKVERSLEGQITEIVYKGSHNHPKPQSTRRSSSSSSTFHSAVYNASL
Strand | relative absorbance
AAAAAAGTGTTTGTGCTTCTCTCTGTAAAA | 18.4 % of maximum
AAAAAATCACAATACCTTCTCGTCATAAAA | 15.8 % of maximum
AAAAAACTGCTTGCCCCTGTCTCCATAAAA | 12.9 % of maximum
AAAAAATGGATCTTTACTTTAGGCCAAAAA | 22.1 % of maximum
AAAAAACGCTCCGTTTTTGCAATGCGAAAA | 21 % of maximum
AAAAAACTGCTAATCGGTGACCCGATAAAA | 21.6 % of maximum
AAAAAAACCGCGTCGCGGCCCGGGAAAA | 20.7 % of maximum
AAAAAAAAATCGAATTTGGACTTCCGAAAA | 19.5 % of maximum
AAAAAATGAATCAATTTTTGGGCTTTAAAA | 31.4 % of maximum
AAAAAATAATATCGATACTCATGCCCAAAA | 20.4 % of maximum
AAAAAAGGCTCCGGCCCCCAATCGCAAAAA | 18.9 % of maximum
AAAAAAATTCGCAACCCTCACGTTCGAAAA | 22.6 % of maximum
AAAAAATGTGGTTACGGCCTCGATGAAAAA | 17.7 % of maximum
AAAAAATGAGAGAATTTCCGGTTCAGAAAA | 23.1 % of maximum
AAAAAAATCTTTGCGTCGAGATTCTTAAAA | 24.6 % of maximum
AAAAAAGGAAAACGAGTTCATCTGGTAAAA | 19.3 % of maximum
AAAAAAGGACGTCTTCGGTATGAGTGAAAA | 24 % of maximum
AAAAAAAAGAGCCTGGGGGTTCGCATAAAA | 19.2 % of maximum
AAAAAATTTGCGCTTCATCCTGCCCCAAAA | 24.5 % of maximum

For quick reference, copied from above (sample 4):
Strand | 7-mer Z-score
CAUCCUC | -0.329
CUUGUGA | -0.378
AUCCGCA | -0.249
AGAAGUC | -0.333
UCCGAUC | -0.376
CCGUGGC | 0.00617
GUUACCA | -0.0373
UGUUCUA | -0.309
CCAGCAA | 0.0406
UCUAUUA | -0.291
